Measured values gathered from unrelated publications.
Parts stem from different laboratories: compare values within a part only.

Series 1 — technique: RNA Bind-n-Seq; form: RNA; matrix: in vitro; tested at: 200 nM; notes: whole 134-nt RNA, ends assumed; added: 150 mM KCl; relative to: input library; direction: higher = stronger binding; endpoint: log2 enrichment
Target: Fragile X messenger ribonucleoprotein 1, C-terminal low-complexity region (Fmr1, Mus musculus, UniProt P35922)
Oligonucleotide = GGGAGUUCUACAGUCCGACGAUCGUCCUGUGCUACACAUCGUAUGUACCGAAUCGGGGAAAAAGGGAAAAAGGAAAAAGGGGAAAGUAUUAUGUUACGCCGUUCGGAUCUGCAUGGAAUUCUCGGGUGUCAAGG; result = -0.199
Oligonucleotide = GGGAGUUCUACAGUCCGACGAUCUCAAGUCCUGUGCUACACAUCGUAUGUACCGAAUCGGUUUGGGGUUUGGUUUGGGAAAGUAUUAUGUUACGCCGUUCGGAUCUGCACUUCUGGAAUUCUCGGGUGUCAAGG; result = -0.298
Oligonucleotide = GGGAGUUCUACAGUCCGACGAUCAAGUCCUGUGCUACACAUCGUAUGUACCGAAUCGGAAAAGGGGAAAAGGGGAAAAGGAAAGUAUUAUGUUACGCCGUUCGGAUCUGCACUUGGAAUUCUCGGGUGUCAAGG; result = -0.0852
Oligonucleotide = GGGAGUUCUACAGUCCGACGAUCACCAUGCAGGUGGGCAUCUUUGGGAAGUGGGGCAAGGGGGGGAUAGGGAGGGGGGUAACACUUUGGGAACAGGUGGUCCCAGGUCGCUUCUGGAAUUCUCGGGUGUCAAGG; result = 0.907

Series 2 — technique: protein binding microarray; form: double-stranded DNA, one strand shown; matrix: in vitro; tested at: not given; relative to: not given; direction: higher = stronger binding; endpoint: E-score
Target: Histone acetyltransferase KAT6A, both winged helices, GST fusion (KAT6A, Homo sapiens, UniProt Q92794, residues 1-181)
Notes: 8-mer, flanks averaged, mean of 2 arrays, mostly near background
Residues (chain): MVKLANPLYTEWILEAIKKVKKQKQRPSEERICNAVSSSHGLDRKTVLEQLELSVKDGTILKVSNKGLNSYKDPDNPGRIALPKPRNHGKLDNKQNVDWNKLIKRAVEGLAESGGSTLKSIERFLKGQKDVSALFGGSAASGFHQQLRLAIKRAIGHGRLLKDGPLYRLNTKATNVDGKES
Oligonucleotide = TGCCGCAA; result = 0.188
Oligonucleotide = AGTCCCGG; result = 0.136
Oligonucleotide = AGTTTCCC; result = -0.0212
Oligonucleotide = TCGTAGCA; result = -0.0818
Oligonucleotide = CGCTTTTA; result = 0.292

Series 3 — technique: RNA Bind-n-Seq; form: RNA; matrix: in vitro; tested at: 365 nM; relative to: no-protein control; direction: higher = stronger binding; endpoint: RBNS enrichment (R)
Target: RNA binding protein fox-1 homolog 2, RRM domain, GST-SBP tag (RBFOX2, Homo sapiens, UniProt O43251-10, residues 100-194)
Notes: natural RNA segment, single round, ends assumed
Residues (chain): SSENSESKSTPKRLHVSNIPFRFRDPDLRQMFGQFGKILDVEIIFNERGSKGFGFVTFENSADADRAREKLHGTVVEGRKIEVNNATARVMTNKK
Oligonucleotide = GGGAGUUCUACAGUCCGACGAUCUAUUUAGAAAUGUCUUACUGUAUAUAUGUUUAUGUUUAUUUGGUCCUUAGAGAUUAAAAGCGGUCAUACAAGUAUGUUCCUAUUUCAUUUCUAUUUUUCACACCAUCACAUGGAAUUCUCGGGUGCCAA; result = 0.255
Oligonucleotide = GGGAGUUCUACAGUCCGACGAUCACACAGACACCUCAGUGUUGGACCUGUGAUGAAAGUUUCUGAGAAAUACUUUUGUUCCAAACCAUUAAGUAAUGUACGCAUGUUAAACACGUAGAGUGCCUGGCACUGGCUGGAAUUCUCGGGUGCCAA; result = 8.92
Oligonucleotide = GGGAGUUCUACAGUCCGACGAUCAUAACUACUGAAAGGGGAACCUUCGUCUUUUUAAAUGUGUUAUUUCACAUUACAAUAAUAUGUGUAGUAGUUGAAUUGUGUUAUCAAAGCAUGUCCAACUUCUGUCCAGAUGGAAUUCUCGGGUGCCAA; result = 0.311
Oligonucleotide = GGGAGUUCUACAGUCCGACGAUCUCUCCUAUUAAAUAAAAUUAUUUUAAGUUUUAGUGUCAAAAGUGAGAUGCUGAGAGUAGGUGAUAAUGUAUAUUUUACAGAGUGGGGGUUGGCAGGAUGGUGACAUUGAAUGGAAUUCUCGGGUGCCAA; result = 0.664

Single results of other studies
Molecule = PhoQ, residues 284 288 289 292 302 303 GTAMQF; target = PhoP, residues 12 14 15 18 19 IQSYL (Escherichia coli, UniProt P23836); assay = Sort-seq, measured: YFP reporter; system = E. coli; setting = PhoQ-PhoP variant library, added: 10 µM Mg2+; how to read = relative to: high Mg2+ state, higher = stronger signaling; endpoint = fold induction; result = 25.2

A few entries again (series 1):
Oligonucleotide = GGGAGUUCUACAGUCCGACGAUCAAGUCCUGUGCUACACAUCGUAUGUACCGAAUCGGAAAAGGGGAAAAGGGGAAAAGGAAAGUAUUAUGUUACGCCGUUCGGAUCUGCACUUGGAAUUCUCGGGUGUCAAGG; result = -0.0852
Oligonucleotide = GGGAGUUCUACAGUCCGACGAUCUCAAGUCCUGUGCUACACAUCGUAUGUACCGAAUCGGUUUGGGGUUUGGUUUGGGAAAGUAUUAUGUUACGCCGUUCGGAUCUGCACUUCUGGAAUUCUCGGGUGUCAAGG; result = -0.298
